Measurements gathered from unrelated publications.
Lines come from different studies, so protocols differ. “And” joins repeats or separate records; there may be more than shown. Numbers after ± are the reported error. ≈ marks a conversion by molar mass, not a printed value.

SMILES | assay | system | setting | how to read | quantity | result
O=C(Nc1nc2cccc(-c3ccc(CN4CCS(=O)(=O)CC4)cc3)n2n1)C1CC1 | item: cardiac disorders | human rheumatoid arthritis patients | oral, 75 mg once daily, 4 weeks, regardless of relatedness | – | treatment-emergent adverse events | 4.5%
CCc1cc(C(=O)NC)c2nccc(N3CCc4c(cc(Cn5ccnc5)cc4-c4cn(C)nc4C(F)(F)F)C3=O)c2c1 | item: TBIL | Sprague Dawley rat | oral, 50 mg/kg once daily, 7 days | baseline: vehicle | change in clinical chemistry or haematology parameter | 6.7%
CCn1cc(C(=O)N2CCOCC2)c(=O)c2cc(NC3Cc4ccccc4C3)cnc21 | – | human, fasted | oral suspension, 2000 mg single dose, arithmetic mean | – | half-life | 16.7 h
C=CCN1CC(=O)N2[C@@H](Cc3ccc(O)cc3F)C(=O)N(Cc3cccc(N4CC(N5CCN(CC)CC5)C4)n3)C[C@@H]2N1C(=O)NCc1ccccc1 | item: Malaise | advanced solid tumour patients | all doses, expansion part, any grade | – | treatment-related adverse events | 10.5%
O=C(N[C@H](Cc1c[nH]c2ccccc12)C(=O)Nc1ccncc1)c1ccc(N2CCN(c3ccc(F)cc3F)CC2)cc1F | – | Swiss Webster mouse, female, brain | oral, 50 mg/kg, 2 h, 20% HPβCD vehicle | – | concentration | 140 nM
OC[C@H]1O[C@@H](c2ccc(F)c(Cc3cc4ccccc4s3)c2)[C@H](O)[C@@H](O)[C@@H]1O | – | Japanese patients, type 1 diabetes | oral, 25 mg/day, onset day 9 | baseline: patients | hypoglycaemia-related adverse event | 3%
O=C(Nc1ccc(OC(F)(F)Cl)cc1)c1cnc(N2CC[C@@H](O)C2)c(-c2ccn[nH]2)c1 | per laboratory record, item: absolute neutrophil decrease | human patients | oral, dose not given, dose-finding study | – | grade ≥3 event rate | 4%
O=C1CSCCN1c1ccc(CO[C@@H]2COc3nc([N+](=O)[O-])cn3C2)cc1F | – | aqueous buffer | pH 7.4 | – | aqueous solubility | 28 µg/mL (≈ 68.6 µM)
Cc1nc2cccc(OCC(C)(C)C(=O)NC(C)C)c2c(N)c1C(=O)O | – | male Swiss albino CD-1 mouse, bone marrow | oral, 1000 mg/kg, 24 h | – | micronucleated PCE per 14000 PCE | 7
CC(C)(C(=O)N1CCOc2c(C#N)cncc2C1)C(F)F | item: nervous system disorders | healthy humans, both sexes | oral, 20 mg single dose | – | subjects with TEAE | 16.7%
Cc1ccc(C(=O)N(CCCN)C(c2nc3snc(C)c3c(=O)n2Cc2ccccc2)C(C)C)cc1 (stereo not drawn) | – | human patients | intravenous, 13 mg/day | – | grade ≥3 hyperbilirubinemia patients | 0%
CNCCOC12CC3(C)CC(C)(CC(Cn4ncc(-c5ccc(N6CCc7cccc(C(=O)Nc8nc9ccccc9s8)c7C6)nc5C(=O)O)c4C)(C3)C1)C2 | – | beagle dog, male, anaesthetised | intravenous bolus, 0.03 mg/kg, 15 min | baseline: baseline | mean arterial pressure change | -2%
Cn1cnc2c(F)c(Nc3ccc(Br)cc3Cl)c(C(=O)NOCCO)cc21 | population PK model | human, plasma | oral, first-order absorption model | baseline: fed over fasted | relative bioavailability | 0.74
Oc1ccc(/C=C/c2cc(O)cc(O)c2)cc1 | – | rat, azoxymethane-injected, blood at sacrifice | 10 mg/kg | – | chloride | 102 mEq/L and 99 mEq/L and 100 mEq/L
CS(=O)(=O)c1ccc([C@@H](O)[C@@H](CF)NC(=O)C(Cl)Cl)cc1 | – | Arbor Acres chickens, plasma | oral, 20 mg/kg, added: quercetin 60 mg/kg pretreatment | – | terminal half-life | 2.07 ± 0.58 h
COc1ccccc1OCCNCC(O)COc1cccc2[nH]c3ccccc3c12 (stereo not drawn) | – | buffer without mucin | supersaturation ratio 5 | – | precipitation induction time | ≤ 10 min
Cc1nc(-c2ccc(OCC(C)C)c(C#N)c2)sc1C(=O)O | – | KM mouse, chronic hyperuricaemia model, serum | dose not given | – | ALT | 58.4 U/L and 63.6 U/L and 67.8 U/L and 59 U/L and 81.8 U/L
C[C@@H](N)C1CCN(S(=O)(=O)c2cccc3cnccc23)CC1 | item: Rash | healthy volunteers | 25 mg, fasted | – | TEAE incidence | 0%
O=C(N[C@@H](CSCc1ccc([N+](=O)[O-])cc1)C(=O)NO)c1ccccc1 | – | ICR mice, male, heart, lungs, kidney, liver | oral, 200 mg/kg, 28 days, subacute toxicity | – | relative organ weight | no effect
CNCc1ccc(-c2[nH]c3cc(F)cc4c3c2CCNC4=O)cc1 | – | human patients | oral, 240 mg twice daily, all grades | – | dizziness incidence | 33.3%
COc1ccc2[nH]c([S+]([O-])Cc3ncc(C)c(OC)c3C)nc2c1 (stereo not drawn) | – | healthy Chinese volunteers, CYP2C19 intermediate metabolizers | oral, 20 mg, fasted | – | t1/2 | 0.99 ± 0.28 h
O=C(O)CCCOc1ccc([18F])cc1-c1cc(-c2ccccc2C(F)(F)F)n(-c2ccccc2)n1 | gamma counting | male ddY mice, lung | intravenous, 2.1 MBq, 15 min | – | radioactivity uptake | 0.47 ± 0.07 SUV
CCn1ncc2c1-c1cnc(N)c(c1)O[C@H](C)c1cc(F)ccc1-c1nn(C)nc1C2 | – | female athymic nude mice, sample A PDX | oral, 5 mg/kg once daily for 1 days, 1 h | – | unbound plasma concentration | 550 ± 6 nM
Cc1cc(-c2nccc3c2ccn3CC(=O)Nc2ccc(-c3cnccn3)cn2)ccn1 | – | healthy human volunteers | oral, 7 mg single dose, single ascending dose | – | nervous system TEAEs | 0%
Cn1c(=O)oc2ccc(-c3ccc(C[C@@H](C#N)NC(=O)[C@@H]4CNCCCO4)cc3)cc21 | – | healthy male subjects | oral, dose not given, repeated dosing | – | steady-state plasma concentration | 1000 nM
O=C(O)CCC(=O)O.[2H]C([2H])([2H])Oc1cc(C)c2[nH]ccc2c1CN1CC[C@@H](C2CC2)C[C@H]1c1ccc(C(=O)O)cc1 | – | human, plasma | 300 mg once daily, day 10, multiple ascending dose, geometric mean | – | Cmax | 7290 ng/mL
CCN(Cc1ccc(F)cc1)c1ccc(CO)c(Cl)c1 | – | male F344 rat, liver | oral, 100 mg/kg/day, 2 days | direction not given | liver histopathology score | 0 and 4

SMILES | assay | system | setting | how to read | quantity | result
COc1cc2c3c(c(=O)oc2c(C2OCCCO2)c1O)CN(C)CC3 | HPLC | PBS | concentration not given, 48 h, 37 °C | – | acetal hydrolysis | ~70%
O=C(COc1ccc(Cl)cc1)NC12CC(c3nnc([C@H]4C[C@@H](OC(F)(F)F)C4)o3)(C1)C2 | item: postural dizziness | human | oral, 145 mg once daily, 14 days | – | adverse event incidence | 14.3%
NC/C(=C\F)COc1cccc(Cn2c(=S)[nH]c(=O)c3[nH]cnc32)c1 | – | rat plasma | 1 µM, 1 h | – | remaining compound | 100%
O=C(O)CCCCCCCCCCCCCCC(=O)O | – | human, plasma | endogenous baseline diurnal | baseline: daily mean concentration | relative peak deviation | 59.9 ± 9.8%
COc1cc(Nc2ncc3c(n2)-c2ccc(Cl)cc2C(c2c(F)cccc2OC)=NC3)ccc1C(=O)O | item: Dizziness, grade 2 | cancer patients, phase 1/2 | oral, dose not given, added: pembrolizumab | – | patients with adverse event | 4%
Cl.[2H]C([2H])([2H])CC(=O)c1cnc(NC(=O)C2CC2)cc1Nc1cccc(-c2ncn(C([2H])([2H])[2H])n2)c1OC | median | human | oral, 20 mg once daily, day 1, fasted, liquid, multiple dose | – | Tmax | 1.32 h
C[C@H](CCC(=O)O)[C@H]1CC[C@H]2[C@@H]3[C@H](O)C[C@@H]4C[C@H](O)CC[C@]4(C)[C@H]3C[C@H](O)[C@]12C | – | human, plasma | endogenous baseline diurnal | baseline: daily mean concentration | relative peak deviation | 149 ± 45%
CC(C)=CC[C@@H](O)C1=CC(=O)c2c(O)ccc(O)c2C1=O | – | plasma | 0.5 ng/mL, 3 freeze-thaw cycles at -80 °C | – | measured concentration | 0.48 ± 0.03 ng/mL
O=C(c1cccnc1-c1ccncc1)N1CCC(O)(Cc2ccccc2)CC1 | – | healthy Japanese adults, plasma | oral, 200 mg twice daily, day 14 | – | terminal half-life | 2.62 h
O=C(OC(C(F)(F)F)C(F)(F)F)N1CCN(Cc2cccc(Oc3ccccc3)c2)CC1 | PET blocking study | rhesus monkey, brain FCX | 0.03 mg/kg, compound pretreatment, added: [18F]T-401 tracer | – | k2 | 0.024 min⁻¹
COc1ncc(-c2nc3c(n2C(C)C)[C@H](c2ccc(Cl)cc2)N(c2cc(Cl)cn(C)c2=O)C3=O)c(OC)n1 | – | human patients, plasma | oral, 2 mg, cycle 1 day 14 | – | geometric mean AUC(0-last) | 109 ng·h/mL
CN(C)C(=N)N=C(N)N | item: oral herpes | healthy men | dose not given, 8 days, treatment-emergent, crossover trial | – | subjects with adverse event | 0%
O=C(c1ccc(C#Cc2cccc(F)c2)nc1)N1CCC(O)CC1 | – | rats | i.p., 56.6 mg/kg, 2 h | – | unbound brain concentration | 1110 ± 34.1 nM
N#Cc1cccc(-c2ccc3ncc(-c4cc(F)cc(F)c4)c(N4CCC(N)CC4)c3c2)c1O | – | human, male, urine and faeces | oral, 20 mg, 120 h, single dose, mean | baseline: dose | total radioactivity recovered | 88.1%
CC(C)Oc1c(NC(=O)c2ccc(NC(=O)[C@H](CC(N)=O)NC(=O)c3ccc(/N=N/c4ccccc4)cc3)cc2)ccc(C(=O)N/N=C/c2ccc(C(=O)O)s2)c1O | absorbance | DMSO | 50 °C, PSS to ground state relaxation | – | thermal half-life | 0.8 h
CO[C@@H]1[C@H](O)[C@@H](CO)O[C@H]1n1c([N+](=O)[O-])nc2c(=O)[nH]c(N)nc21 | depurination, RP-HPLC | citrate-phosphate buffer 0.5 mM | 1272 min, pH 7, 37 °C | – | nucleoside remaining fraction | 0.688
CCOc1c([C@H](C)n2nc(C)c3c(N)ncnc32)cc(Cl)c(F)c1[C@@H]1CNC(=O)C1 | – | human, DLBCL, plasma | oral, 30 mg, day 15, geometric mean | – | Cmax | 3770 nM
Cc1ccc([C@@H]2O[C@H](CO)[C@@H](O)[C@H](O)[C@H]2O)cc1Cc1ccc(-c2ccc(F)cc2)s1 | item: inorganic phosphorus | Japanese type 2 diabetes patients | 25 mg, day 17, 24 h urine collection | baseline: baseline | urinary phosphate excretion change | 52.5 mg
Cc1cccc(CNC(=O)c2cn(CCNC(=O)c3ccccc3Sc3c([N+](=O)[O-])ncn3C)c3cc4c(cc3c2=O)OCO4)n1 | – | Beagle dog, whole blood | 1 µM, 0.5 h | – | remaining compound | 93.9%
NC(CO)(CO)CCc1ccc(Sc2cccc(OCc3ccccc3)c2)cc1Cl | – | human, supine | oral, 3 mg, 0 to 24 h, alone | – | pulse rate AUEC, geometric mean | 1280 h×bpm
N#Cc1ccc2c(c1)[C@H]1CCCN(C(=O)c3ccc4[nH]cnc4c3)[C@H]1C2 | – | human, female | 10 mg, day 15 | – | androstenedione level | 6.5 nmol/L
C[C@@H]1[C@H](O)[C@@H](C)/C=C/C=C/C=C/C=C/C=C/C=C/C=C/[C@H](O[C@@H]2O[C@H](C)[C@@H](O)[C@H](N)[C@@H]2O)C[C@@H]2O[C@](O)(C[C@@H](O)C[C@@H](O)[C@H](O)CC[C@@H](O)C[C@@H](O)CC(=O)O[C@H]1C)C[C@H](O)[C@H]2C(=O)O | – | human blood | 500 µg/mL, 24 h, DMSO solvent | – | hemolysis | 17.7% and 19.3% and 16.7%
CN(CCCN1CCN(C(=O)CN2CCN(CC(=O)[O-])CCN(CC(=O)[O-])CCN(CC(=O)[O-])CC2)CC1)c1ccc2nccc(C(=O)NCC(=O)N3CC(F)(F)C[C@H]3C#N)c2c1.[68Ga+3] | – | mice, HT-1080.hFAP and HT-1080 wild-type xenografts, pancreas | iv, 500 pmol, 1 h post injection | – | uptake | 0.2 ± 0.1 %IA/g
Cc1cc(-c2nnc(N)nc2-c2ccc(F)cc2)cc(Cl)n1 | item: Fatigue | human phase Ia/Ib NSCLC, post-immunotherapy | oral, 100 mg once daily | – | patients with treatment-related adverse events | 17.6%
COc1nnc2ccc(N3CCC(c4ccc(OCCN5CCN(C)C(=O)[C@H]5C)cc4)CC3)nn12 | – | patients, plasma | oral, 20 mg twice daily, single dose, monotherapy | – | terminal half-life | 2.28 h
O=C(CCCCCCC(=O)Nc1ccc(CC[18F])cc1)NO | – | athymic nu/nu male mice, LNCaP xenograft, large intestine | intravenous, 2 h | – | tissue uptake | 5.1 ± 1.8 %ID/g
O=C(Cc1ccc2ccccc2c1)Nc1cc(C2CCC2)[nH]n1 | – | mouse plasma | 0.5 ng/mL, 40 days, -80 °C, long-term storage stability | – | measured mean concentration | 0.5 ± 0.03 ng/mL

Excerpt of the above:
SMILES | assay | system | setting | how to read | quantity | result
O=C(O)CCCCCCCCCCCCCCC(=O)O | – | human, plasma | endogenous baseline diurnal | baseline: daily mean concentration | relative peak deviation | 59.9 ± 9.8%
CO[C@@H]1[C@H](O)[C@@H](CO)O[C@H]1n1c([N+](=O)[O-])nc2c(=O)[nH]c(N)nc21 | depurination, RP-HPLC | citrate-phosphate buffer 0.5 mM | 1272 min, pH 7, 37 °C | – | nucleoside remaining fraction | 0.688
Cn1cnc2c(F)c(Nc3ccc(Br)cc3Cl)c(C(=O)NOCCO)cc21 | population PK model | human, plasma | oral, first-order absorption model | baseline: fed over fasted | relative bioavailability | 0.74
CCc1cc(C(=O)NC)c2nccc(N3CCc4c(cc(Cn5ccnc5)cc4-c4cn(C)nc4C(F)(F)F)C3=O)c2c1 | item: TBIL | Sprague Dawley rat | oral, 50 mg/kg once daily, 7 days | baseline: vehicle | change in clinical chemistry or haematology parameter | 6.7%
O=C(c1cccnc1-c1ccncc1)N1CCC(O)(Cc2ccccc2)CC1 | – | healthy Japanese adults, plasma | oral, 200 mg twice daily, day 14 | – | terminal half-life | 2.62 h
CC(C)=CC[C@@H](O)C1=CC(=O)c2c(O)ccc(O)c2C1=O | – | plasma | 0.5 ng/mL, 3 freeze-thaw cycles at -80 °C | – | measured concentration | 0.48 ± 0.03 ng/mL
O=C(N[C@H](Cc1c[nH]c2ccccc12)C(=O)Nc1ccncc1)c1ccc(N2CCN(c3ccc(F)cc3F)CC2)cc1F | – | Swiss Webster mouse, female, brain | oral, 50 mg/kg, 2 h, 20% HPβCD vehicle | – | concentration | 140 nM
